Measured values pooled from the literature.
Parts stem from different laboratories: compare values within a part only.

Sample 1
Target: Interferon regulatory factor 3, full length, phosphomimetic (IRF3, Homo sapiens, UniProt Q14653, residues 1-427, S386D/S396D/S398D/S402D/T404D/S405D)
Technique: protein-binding microarray
Molecule type: double-stranded DNA, one strand shown
Medium: in vitro
Concentration: 2540 nM top
Notes: 60-bp whole probe
Together with: salmon DNA 0.4 mg/ml
Reference: random background probes
Reading: higher = stronger binding
Shared flanks, not repeated: GCCTAGCAC … GTCTTGATTCGCTTGACGCTGCTG
Residues (chain): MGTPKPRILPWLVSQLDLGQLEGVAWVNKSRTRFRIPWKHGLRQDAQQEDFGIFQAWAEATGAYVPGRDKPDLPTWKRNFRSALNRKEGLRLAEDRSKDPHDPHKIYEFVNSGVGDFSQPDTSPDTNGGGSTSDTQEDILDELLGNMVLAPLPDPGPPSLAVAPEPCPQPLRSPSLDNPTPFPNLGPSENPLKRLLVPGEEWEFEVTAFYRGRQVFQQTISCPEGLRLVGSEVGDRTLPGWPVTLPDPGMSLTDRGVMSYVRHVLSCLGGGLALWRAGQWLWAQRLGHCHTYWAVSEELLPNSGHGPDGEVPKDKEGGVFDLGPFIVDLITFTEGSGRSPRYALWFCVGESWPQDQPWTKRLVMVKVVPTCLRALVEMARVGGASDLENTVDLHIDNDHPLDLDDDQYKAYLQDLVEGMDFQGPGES
| Oligonucleotide | fitted relative affinity |
| --- | --- |
| TTAGGACTGGATATCGGTTAGTGCTAG | -0.202 z-score |
| TTATGTATCCTACTGCTTTAGTGCTAG | 2.48 z-score |
| GACGGTTTCCTGTCCCTGACGTGCTAG | 3.76 z-score |
| TCAGTTTGCCCTATTTAACTGTGCTAG | 1.65 z-score |
| GACGGTATCCTTATCCCGACGTGCTAG | 5.64 z-score |
| GACTGTATCGACACTGGGGACGTGCTA | 0.593 z-score |
| TGTTATTAAATTTTCACGGTGTGCTAG | 0.213 z-score |
| TCAGTTCTGAGTCTTCCACTGTGCTAG | 0.739 z-score |
| TTAGGTTTCCTACTGCTTTGGTGCTAG | 4.68 z-score |
| GTATTTTTCTAAACCATTTTGTGCTAG | 1.65 z-score |
| TGAGGTCTCGGTATCGGTTAGTGCTAG | 2.16 z-score |
| AACGGTTTCGGTTCCGGGACGTGCTAG | 10 z-score |
| AGACATGACACCACTCCTGAGTGCTAG | -0.347 z-score |
| TTAGGACTGGGATTGGGTTAGTGCTAG | -0.79 z-score |
| TTAGGCTTCGGTCTCGGTTAGTGCTAG | 0.514 z-score |
| GGTCTTTCCGATTAGTCCCCGTGCTAG | 3.42 z-score |
| CACGGACTGCTTTTCCTGACGTGCTAG | -0.139 z-score |
| TTAGAGTTCAGTTTCGATTAGTGCTAG | 4.11 z-score |

Sample 2
Target: Sal-like protein 4, full length isoform A (SALL4, Homo sapiens, UniProt Q9UJQ4, residues 1-1053)
UniProt Q9UJQ4, sequence (whole entry, looked up): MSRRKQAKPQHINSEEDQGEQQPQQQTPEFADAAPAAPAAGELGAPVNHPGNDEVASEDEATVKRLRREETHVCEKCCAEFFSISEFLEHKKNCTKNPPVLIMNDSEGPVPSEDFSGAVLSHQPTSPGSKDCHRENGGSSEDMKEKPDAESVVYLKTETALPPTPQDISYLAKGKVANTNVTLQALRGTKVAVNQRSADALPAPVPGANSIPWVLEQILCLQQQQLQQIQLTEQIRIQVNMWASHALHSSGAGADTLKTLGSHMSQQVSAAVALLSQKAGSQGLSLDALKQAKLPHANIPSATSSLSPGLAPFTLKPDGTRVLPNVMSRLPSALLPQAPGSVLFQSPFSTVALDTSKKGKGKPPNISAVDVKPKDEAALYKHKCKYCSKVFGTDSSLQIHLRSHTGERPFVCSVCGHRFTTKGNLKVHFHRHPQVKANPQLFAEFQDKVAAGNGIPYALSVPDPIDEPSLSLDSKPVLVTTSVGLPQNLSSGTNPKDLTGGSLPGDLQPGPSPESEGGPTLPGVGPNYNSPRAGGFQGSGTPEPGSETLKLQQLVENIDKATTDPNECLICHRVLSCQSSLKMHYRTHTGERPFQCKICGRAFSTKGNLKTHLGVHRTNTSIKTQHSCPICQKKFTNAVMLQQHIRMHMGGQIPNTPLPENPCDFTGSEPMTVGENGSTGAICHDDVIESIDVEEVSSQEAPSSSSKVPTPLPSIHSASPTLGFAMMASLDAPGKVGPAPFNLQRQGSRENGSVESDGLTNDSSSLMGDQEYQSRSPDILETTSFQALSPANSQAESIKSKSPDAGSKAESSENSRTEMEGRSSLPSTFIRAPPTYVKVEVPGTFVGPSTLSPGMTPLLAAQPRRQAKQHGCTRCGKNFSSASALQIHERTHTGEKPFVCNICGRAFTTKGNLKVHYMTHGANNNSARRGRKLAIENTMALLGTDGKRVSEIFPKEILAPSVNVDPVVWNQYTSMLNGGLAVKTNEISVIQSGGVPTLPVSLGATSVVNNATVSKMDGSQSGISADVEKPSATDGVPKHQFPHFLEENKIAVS
Technique: universal PBM
Molecule type: double-stranded DNA, one strand shown
Medium: in vitro
Concentration: 600 nM
Notes: 8-mer, flanks averaged, mean of replicates
Reading: higher = stronger binding
| Oligonucleotide | E-score |
| --- | --- |
| ATAATGAC | 0.129 |
| CCTCCAGC | -0.18 |
| CAATCCAG | -0.157 |
| CTGGTCGC | -0.185 |
| CAGCATGC | -0.188 |
| CCGAAACA | 0.145 |
| ATGGCCGG | -0.189 |
| CATCTAAA | 0.14 |
| TCAGGCAA | -0.0645 |
| CCCCCCCG | -0.46 |
| AGTGGGGG | -0.2 |
| GTACGAAA | 0.182 |
| GAGAAAAC | -0.0923 |
| GATAAGGA | 0.0576 |
| TAGAACCA | 0.109 |
| AGTCTAAA | 0.157 |
| ACTCATGC | -0.00422 |
| AGACCGTG | -0.245 |
| ACCGCGTA | -0.125 |
| AGTATTGG | 0.185 |
| AAGTGATT | 0.154 |
| AGATGATA | 0.228 |
| CCGGTAGA | -0.237 |

Sample 3
Target: RNA binding protein fox-1 homolog 2, RRM domain, GST-SBP tag (RBFOX2, Homo sapiens, UniProt O43251-10, residues 100-194)
Technique: RNA Bind-n-Seq
Molecule type: RNA
Medium: in vitro
Concentration: 365 nM
Notes: natural RNA segment, single round, ends assumed
Reference: no-protein control
Reading: higher = stronger binding
Shared flanks, not repeated: GGGAGUUCUACAGUCCGACGAUC … UGGAAUUCUCGGGUGCCAA
Residues (chain): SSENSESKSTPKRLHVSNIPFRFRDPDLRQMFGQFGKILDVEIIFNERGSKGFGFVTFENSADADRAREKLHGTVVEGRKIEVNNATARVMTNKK
| Oligonucleotide | RBNS enrichment (R) |
| --- | --- |
| CCUUCCCACAGCAUUCCUCCAUCUUAGAUAGAUGGUACUCUCCAAAGGCCCUACCAGAGGGAACACGGCCUACUGAGCGGACAGAAUGAUGCCAAAAUAUUGCUUAUGUC | 0.712 |
| AGAUGGCCUCCCUGCUCUUCUGGCCCCCAUGUCAUAGUUAAAACUGACAAGGAUUUGAAAAAGACUGGCGAGGGAACGUGUCUGCUUAGCCGAGACUCCCAUACCUACUA | 0.31 |
| AACAAUGACAAACCACACAAUUGUUGUUGAGUAAACCACGCACAAUGGCAUGUCUUUCUUUUUCUGCCAGAAAAUCUAUUUUAAGAAACCAGAAUAGUCAACAGUGUUCA | 0.443 |
| UAAUGCUGUUUGUAACCAUGCAUCUGUUUUCAUUCUUUGCUGUACCUUUUGCUGCCCAUCCUGUUACUUUUGAGUUUCUUUCAUUGUGGUUGUUCUUGGGUUCUUUUGUC | 1.5 |
| GCACAUGCCAAGGAAGACCCCCUCCUGACCCCUGUUCCGGCUUCAGAAAACCCGUUUAGGGAGAAGAAGUUUUUCUGUGCCAUCCUUUAAGUCUUUGAGAGGGGCCUGAA | 1 |
| UUGCUGGAAGGAGAAAAGGAAGGAAUCCCCCGAAAAUCAAAGCAGUCAGAAAAACCAGAGCGACUGUUAAGGGCUUUGGCCAGCUUUCUAGGCAGCGAGUGCAGGUGACA | 0.751 |
| GAUGUAGUAGAACAUGCCCUGCAGGAAGAAAAUGUUUUCUCUCCUGCGUAUGUUAAGAGGAAAUCAGUUUAAAAUGCCUGCUAAUCAAAUGUCGACUCAGCUAACCAUAU | 3.01 |
| UGAGUUCCCUGGGCAGCCCCCAGGAAGGCCUUCCAGAUCUGGCUCCAGGGUCACCACCUGUCACAGCAAUACCUGGGACCAUGCUCUCCUGGGACUGUGAGGCUCCUUUU | 0.183 |

Sample 4
Target: Histone acetyltransferase KAT6A, winged helix 1, GST fusion (KAT6A, Homo sapiens, UniProt Q92794, residues 1-85)
Technique: protein binding microarray
Molecule type: double-stranded DNA, one strand shown
Medium: in vitro
Concentration: not given
Notes: 8-mer, flanks averaged, mean of 2 arrays, mostly near background
Reference: not given
Reading: higher = stronger binding
Residues (chain): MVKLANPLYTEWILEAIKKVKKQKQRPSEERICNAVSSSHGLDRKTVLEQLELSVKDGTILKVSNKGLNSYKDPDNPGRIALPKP
| Oligonucleotide | E-score |
| --- | --- |
| AATATTAA | -0.0372 |
| TATCTGAA | -0.183 |
| AAATGGAT | -0.237 |
| CCATATTA | -0.16 |
| CCCGCTAC | 0.255 |
| ATGCTCAA | -0.241 |
| CCTCGTCC | -0.189 |
| CTAACAAA | -0.166 |
| AAAGCGTT | -0.013 |
| GACAAGAA | -0.0216 |
| AGTCCCGA | 0.0432 |
| AAAACGCG | 0.254 |
| CCGGAACA | -0.012 |
| ATTACCTC | -0.1 |
| CAAATGCG | 0.131 |
| CGGCCGAC | 0.423 |
| ACTCCGAG | -0.134 |
| GGGCTGCA | -0.113 |
| GCCATCTA | -0.137 |
| AACGTCAA | -0.0615 |
| CGCGTCCC | 0.342 |
| GTCCCGCA | 0.324 |
| GGCTGGAA | -0.118 |
| GGGAGGTA | 0.0354 |
| CTAAACGA | 0.0222 |
